# Assay results pooled from the literature.
# Numbered parts are unrelated; each lists some results of a single study.

# Sample 1
# Target: Histone acetyltransferase KAT6A, both winged helices, GST fusion (KAT6A, Homo sapiens, UniProt Q92794, residues 1-181)
# Technique: protein binding microarray
# Form: double-stranded DNA, one strand shown
# Medium: in vitro
# Tested at: not given
# Setting: 8-mer, flanks averaged, mean of 2 arrays, mostly near background
# Relative to: not given
# Direction: higher = stronger binding
# Target sequence (chain): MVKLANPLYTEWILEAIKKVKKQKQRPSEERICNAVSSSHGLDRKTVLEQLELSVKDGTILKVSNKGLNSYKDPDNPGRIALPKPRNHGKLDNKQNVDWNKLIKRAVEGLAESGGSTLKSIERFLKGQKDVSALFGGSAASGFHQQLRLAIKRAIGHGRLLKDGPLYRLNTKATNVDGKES
Oligonucleotide,E-score
ATCGCGTG,0.229
GCAGGCAC,0.0292
ACGCACTC,0.112
ATACCTAC,-0.0616
AAGAGGCG,0.0705

# Sample 2
# Target: Myc proto-oncogene protein, bHLH-zipper, MAX partner unstated (MYC, Homo sapiens, UniProt P01106, residues 368-449)
# Sequence of UniProt P01106 (368-449, looked up): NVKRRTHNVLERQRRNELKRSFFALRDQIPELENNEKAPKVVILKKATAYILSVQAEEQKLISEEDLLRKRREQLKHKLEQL
# Technique: protein-binding microarray
# Form: double-stranded DNA, one strand shown
# Medium: in vitro
# Tested at: not given
# Setting: k-mer, scored over probes, only values ≥0.25
# Direction: higher = stronger binding
Oligonucleotide,E-score
GTGCGTGA,0.272
ACATGGTG,0.374
CATGCTTA,0.396
CCCGCACG,0.299
CGGGACAC,0.297

# Sample 3
# Target: Phosphate system positive regulatory protein PHO4, full length, GST-tagged (PHO4, Saccharomyces cerevisiae, UniProt P07270, residues 1-312)
# Technique: competition protein-binding microarray
# Form: double-stranded DNA, one strand shown
# Medium: in vitro
# Tested at: 2 µM
# Setting: whole 60-bp probe, lowest competitor level
# Added: Cbf1 competitor, 0.05 µM
# Direction: higher = stronger binding
# Constant ends, left off below: … GTCTTGATTCGCTTGACGCTGCTG
# Construct (chain): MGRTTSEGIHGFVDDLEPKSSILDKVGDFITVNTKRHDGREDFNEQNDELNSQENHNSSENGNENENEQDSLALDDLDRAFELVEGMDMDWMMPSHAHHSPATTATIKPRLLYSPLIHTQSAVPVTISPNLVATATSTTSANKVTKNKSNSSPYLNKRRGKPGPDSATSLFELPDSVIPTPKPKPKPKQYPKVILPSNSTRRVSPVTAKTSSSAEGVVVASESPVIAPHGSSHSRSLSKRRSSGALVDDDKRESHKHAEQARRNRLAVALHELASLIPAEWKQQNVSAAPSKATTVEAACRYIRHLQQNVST
Oligonucleotide,fluorescence intensity
TGCGCAACAACTTGGGAAGTGGGTGTATGTCTAGAA,4400 a.u.
ATTGACATAATCAGAAACGTGCTTTATCAATTGTGC,13400 a.u.
TGTCTTTCACCTTGTCACGGGCGCTTAGCTCCAATT,5600 a.u.
GCAATACTTATTTTTGAAGCCGGATCCCTAATTGCT,2450 a.u.
CTTCTGTAAATTTGTAGGGTGGGTGGACGCGCCCCG,4910 a.u.

# Other studies, line by line
Substance,target,test,system,conditions,how to read,measurement,value
"PhoQ, residues 284 288 289 292 302 303 AGCYAI","PhoP, residues 12 14 15 18 19 LHHVQ (Escherichia coli, UniProt P23836)","Sort-seq, refers to: YFP reporter",E. coli,"PhoQ-PhoP variant library, added: 10 µM Mg2+","relative to: high Mg2+ state, higher = stronger signaling",fold induction,27.9

# Excerpt of the above (sample 1):
Oligonucleotide,E-score
ATCGCGTG,0.229
